Assay results of several laboratories.
Cell line: SNB-19
Technique: SRB

| Structure (SMILES) | assay | conditions | scale | endpoint | result |
| --- | --- | --- | --- | --- | --- |
| CC(=O)OCC1(O)C(Nc2cccc(C(C)=O)c2)C(N)C(NC(=O)N(C)C)(C(C)OC(C)=O)C1(C)O (stereo not drawn) | cell growth or viability | – | – | GI50 | 570 nM |
| O=C1Nc2ccccc2/C1=N\Nc1nnc2n1N=C(c1ccc(Cl)cc1)CS2 | cell growth or viability | 10 µM | – | inhibition | 10% |
| CC(=C(c1ccc(O)cc1)c1ccc(Cl)cc1)c1ccc(Cl)cc1 | cell growth or viability | – | – | GI50 | 960 nM |
| CC/C=C\C/C=C\C/C=C\C/C=C\C/C=C\C/C=C\CCC(=O)Nc1ccn(C2OC(CO)C(O)C2(F)F)c(=O)n1 (stereo not drawn) | cell growth or viability | – | – | GI50 | 22.3 nM |
| CC(Cc1ccc(Cl)cc1)=C(c1ccc(Cl)cc1)c1ccc(OCCN(C)C)cc1 | cell growth or viability | – | – | GI50 | 5040 nM |
| CC(=O)OC[C@H]1O[C@@H](Sc2sc(C(=O)c3ccc(C)cc3)c(N)c2-c2nc3ccccc3s2)[C@H](OC(C)=O)[C@@H](OC(C)=O)[C@@H]1OC(C)=O | – | 10 µM, 48 h | reference: untreated | growth | 74.4% |
| CC(=O)c1cccc(NC2C(N)C(NC(=O)N(C)C)(C(C)O)C(O)C2(O)COC(=O)c2c(C)cccc2O)c1 (stereo not drawn) | cell growth or viability | – | – | GI50 | 520 nM |
| COc1ccc(C2=Nn3c(NN=C4C(=O)N(C)c5ccc(Br)cc54)nnc3SC2)cc1 | cell growth or viability | 10 µM | – | inhibition | 18% |
| CC(=O)OC[C@H]1O[C@@H](Sc2sc(C(=O)c3ccc(Br)cc3)c(N)c2-c2nc3ccccc3s2)[C@H](OC(C)=O)[C@@H](OC(C)=O)[C@@H]1OC(C)=O | – | 10 µM, 48 h | reference: untreated | growth | 75.2% |
